Published values gathered from unrelated publications.
Each numbered part is a random draw from the data of one study; scales do not carry over between parts. Changes are numbered by the printed parent chain.

Sample 1
Target: CREB5, bZIP domain (human)
Method: DHFR protein complementation
Matrix: yeast
Setting: single substitutions, most at no-binding floor
Reference: wild-type JUN-FOS pair
Reading: higher = stronger binding
Starting sequence: JUN, bZIP domain (human); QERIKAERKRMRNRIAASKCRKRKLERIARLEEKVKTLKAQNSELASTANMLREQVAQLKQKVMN; partner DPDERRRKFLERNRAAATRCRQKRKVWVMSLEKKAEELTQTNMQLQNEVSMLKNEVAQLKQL
| Variant | binding fitness [natural log] |
| --- | --- |
| V35Y | -0.993 |
| K34V | -0.404 |
| E54L | -0.539 |
| E54H | -0.53 |
| L52M | -1.01 |
| R30D | -0.163 |
| E44Q | -0.331 |
| A57L | -0.564 |
| T37H | -0.17 |
| R53I | -1.08 |
| L59E | -1.19 |
| I28F | -0.563 |
| K34S | -0.454 |
| R53P | -1.36 |
| L31M | -0.5 |
| R53C | -1.08 |
| Q55R | -0.519 |

Sample 2
Target: RNA binding protein fox-1 homolog 2, RRM domain, GST-SBP tag (RBFOX2, Homo sapiens, UniProt O43251-10, residues 100-194)
Method: RNA Bind-n-Seq
Form: RNA
Matrix: in vitro
Tested at: 365 nM
Setting: natural RNA segment, single round, ends assumed
Reference: no-protein control
Reading: higher = stronger binding
Constant ends, left off below: GGGAGUUCUACAGUCCGACGAUC … UGGAAUUCUCGGGUGCCAA
Residues (chain): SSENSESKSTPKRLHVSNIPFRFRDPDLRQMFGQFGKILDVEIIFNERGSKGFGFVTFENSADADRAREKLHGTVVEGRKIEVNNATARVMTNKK
| Oligonucleotide | RBNS enrichment (R) |
| --- | --- |
| ACUGAGGGGUCUGUAGGUUUGACUAAAAUAAUAAAUGCUAGGCGUGUUUGAUGCGCUUUUAACUUUGGCAUUGAGUCUCCCGUUCUUGUUUUUAAUGGUGCAAUGAUCAU | 0.619 |
| AUAGUAUUGUGAAAGUUCUGAGACCUUCCCUGGCUCAGGACCUCUGAGUUUCCUUCCCCCUCCCCCCAAUUCAAACCAGGCAGUUUUUUUGGAAGCCAGGUUUCCUUACA | 0.557 |
| AUCACAUACCAGGUCAGGGAGGAUCUGUUCUUCCUCUACGUUUAUCCUGGCAUGUGCUAGGGUAAACGAAGGCAUAAUAAGCCAUGGCUGACCUCUGGAGCACCAGGUGC | 0.22 |
| UCAUCUGAUGUAAAACCAUCCCAGAGCUGGCGAGAGGAUGGAGCUGGGUGGAAACUGCUUUGCACUAUCGUUUGCUUGGUGUUUGUUUUUAACGCACAACUUGCUUGUAC | 0.721 |
| AUUUGCUCAUAAAGCAUUUGGAUACUAAGCCAUUAUUUGCCAUUUUGGGUACUUUAUACAAAGAAAAUUCAGCCCUACCCUGCAUAAUUUGAAGACACAGCAGAAAGGGG | 0.822 |
| UAAAAAUGACUUCAUUGUACUUGAACACCUUUGCAUUUCUCCAUUUGUGCCAUUUACAAGUGGAAAUAAAUUUUAUUAUACCAUGAUCUACUGGCGUUUUAAAACUGUUA | 0.538 |
| CAGAAUAGGCCCAUAUGAUAGGGCAACCCUGAGCUUAAACAAUGACAUCUUCAAGGGUAGAACUAAUCUGAAACCCCAUUCAGCCUAUUCCAGAAUGGGGAUAGGCUGAA | 0.267 |
| AACUGGCCACUCAAUACAGUCUCUCCCUCAAUAGCACAGAAGGUCCUUGAGCUCCCAGGCCGCAGCAACACAUGCAGUGGGACGCAGGAAGCGUGGGCGAGCAUUCUCCU | 0.655 |
| AAAUGUGACCGGUGUAGCUGUAGUUUGUACUUUCCUGGGGACCUUCUGCUGGGGUUUGUGUAAGCUGUGAUUCUUUCCCUUCCUAAUAGGUUGAGCUUGACAUGGAAAGG | 2.2 |
| UUCUGCCACAGGUCUGCCGAUGCCCUGUCCACUGCCUACACAUGACAGACAAGUAACCCCCUCAUGGGGGAUGGGGACCUACCUGGCUCCUCAGCCAGCACCCAGCUUAA | 0.433 |
| CCUCUACCUGGCCCUCAUCCCAACAGCCCAGCAAGGGGAGAGAGAAAGAGAAUUCUUUUCUAUAGAACGAGUGGGGGCGGGGAUGGGUAGGGAUUUAUCCAAUCUAAGCC | 0.48 |
| AGGGGAAAAACCAAAGUUAUUUGUUUUGCAUGGCUAAGCCAUUCUGUUAUCUCUGUAAAUACUGUGAUUUCUUUUUUAUUUUCUCUUUAGAAUUUUGUUAAAGAAAUUCU | 0.581 |

Sample 3
Target: Ras GTPase-activating protein-binding protein 1, C-terminal RGG region (G3BP1, Homo sapiens, UniProt Q13283)
Chain of UniProt Q13283 (whole entry, looked up): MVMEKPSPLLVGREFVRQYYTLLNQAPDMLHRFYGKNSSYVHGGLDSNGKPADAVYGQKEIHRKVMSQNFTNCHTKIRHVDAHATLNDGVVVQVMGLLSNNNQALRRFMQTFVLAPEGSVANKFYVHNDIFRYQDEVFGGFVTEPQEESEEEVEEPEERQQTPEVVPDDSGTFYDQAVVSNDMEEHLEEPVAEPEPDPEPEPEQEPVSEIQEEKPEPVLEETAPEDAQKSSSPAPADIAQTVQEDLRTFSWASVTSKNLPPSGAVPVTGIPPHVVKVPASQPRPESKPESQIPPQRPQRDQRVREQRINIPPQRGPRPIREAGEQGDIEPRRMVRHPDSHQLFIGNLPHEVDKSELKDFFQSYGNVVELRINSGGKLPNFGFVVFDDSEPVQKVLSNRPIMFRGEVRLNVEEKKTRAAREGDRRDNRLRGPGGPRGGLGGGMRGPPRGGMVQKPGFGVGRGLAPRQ
Method: RNA Bind-n-Seq
Form: RNA
Matrix: in vitro
Tested at: 1 µM
Setting: whole 134-nt RNA, ends assumed
Added: 150 mM KCl
Reference: input library
Reading: higher = stronger binding
Constant ends, left off below: GGGAGUUCUACAGUCCGACGAUC … UGGAAUUCUCGGGUGUCAAGG
| Oligonucleotide | log2 enrichment |
| --- | --- |
| UGGCCCUGGUGGCAUGCGGGGAGGAAGAGGUGGCCGCAUGGAUCGUGGUGGUCCCGGUGGAAUGUUCAGAGGUGGCCGUGGUGGAGACAG | 2.4 |
| ACCAUGCAGGUGGGCAUCUUUGGGAAGUGGGGCAAGGGGAAAAUAGGGAGGGGGGUAACACUUUGGGAACAGGUGGUCCCAGGUCGUUUC | -0.844 |
| UCCUGUGCUACACAUCGUAUGUACCGAAUCAAACCCCCAAACCCCCCCAAACCCCCAAAAAAGUAUUAUGUUACGCCGUUCGGAUCUGCA | -0.771 |
| CUCAAGUCCUGUGCUACACAUCGUAUGUACCGAAUCGGGGUGGGGUGGGUGGGAAAGUAUUAUGUUACGCCGUUCGGAUCUGCACUUCCA | 1.58 |
| AAGUCCUGUGCUACACAUCGUAUGUACCGAAUCGGGAAAAGGAAAAGGGAAAAGGGGAAAGUAUUAUGUUACGCCGUUCGGAUCUGCACU | -1.17 |
| UGGCCCUGGUGGCAUGCGGGGAGGAAGAGGUGGCCUCAUGGAUCGUGGUGGUCCCGGUGGAAUGUUCGGAGGUGGCCGUGGUGGAGACAG | 3.21 |
| CUGUGCUACACAUCGUAUGUACCGAAUCAAAGUGUGUGUGUGUGUAAAGUGUGUGUGUAAAAAAGUAUUAUGUUACGCCGUUCGGAUCUG | -0.467 |
| AGUCCUGUGCUACACAUCGUAUGUACCGAAUCGUGUGUGUGUGUGUGUGUGUGUGUGUAAAGUAUUAUGUUACGCCGUUCGGAUCUGCAC | 1.53 |
| CACAGACAACACGCACCCACACAGACACAGAGGGAAGGGGUUGGGAUGGGGACAGGUUGCACAGCAGGGCGGGGUAGGACCCCAGCCCCU | -0.614 |
| CUCAAGUCCUGUGCUACACAUCGUAUGUACCGAAUCGGAAAAAAAGGAGGAGGAAAGUAUUAUGUUACGCCGUUCGGAUCUGCACUUCCA | -1.39 |
| UCCUCAAGUCCUGUGCUACACAUCGUAUGUACCGAAUCGGAGGAGGAGGGGAAAGUAUUAUGUUACGCCGUUCGGAUCUGCACUUCCAGC | -1.24 |
| UCCUGUGCUACACAUCGUAUGUACCGAAUCAAAGUGUGUGUGUGAAAUGUGUGUGUGAAAAAAGUAUUAUGUUACGCCGUUCGGAUCUGC | 0.109 |
| AAGUCCUGUGCUACACAUCGUAUGUACCGAAUCGGCCCCGGCCCCGGGGCCCCGGGAAAGUAUUAUGUUACGCCGUUCGGAUCUGCACUU | -2.21 |
| CACAGACAACACGCACCCACACAGACACAAAGGGAAGGGGUUGGGAUGGGGACAGGGUGCACAGCAGGGCGGGGUAGGACCCCAGCCCCU | -0.288 |

Sample 4
Target: CCNF, cyclin fold, Cln2 fusion (human)
Method: yeast growth competition, sequencing
Matrix: yeast
Setting: weak parent motif
Reference: not given
Reading: higher = stronger binding
Starting sequence: FOXM1 docking peptide (human); PHLARPIKVESPP
| Variant | normalised enrichment score |
| --- | --- |
| V9A | -0.182 |
| E10A | -0.89 |
| P13A | -0.539 |
| P1A | -0.514 |
| P12A | -1.31 |
| I7A | -0.743 |

Sample 5
Target: OGT, full length, His-tagged (human)
Method: phage display, sequencing
Matrix: in vitro
Tested at: 1 µg OGT
Setting: single substitutions, 15-mer displayed peptide, unchanged parent 16.7
Reference: input library
Reading: higher = stronger binding
Starting sequence: peptide; NSEYMPQYQIIFAHQ
| Variant | fold enrichment |
| --- | --- |
| F12H | 4.06 fold |
| I11L | 12.5 fold |
| Q7S | 8.15 fold |
| H14N | 13.5 fold |
| Y4D | 0.767 fold |
| Y8Q | 0.565 fold |
| M5N | 3.65 fold |
| Y8L | 3.47 fold |
| N1R | 11.3 fold |
| Q15P | 29 fold |
| N1F | 17.6 fold |
| H14K | 18.9 fold |
| I11K | 21.4 fold |

Sample 6
Target: Histone acetyltransferase KAT6A, winged helix 1, GST fusion (KAT6A, Homo sapiens, UniProt Q92794, residues 1-85)
Method: protein binding microarray
Form: double-stranded DNA, one strand shown
Matrix: in vitro
Tested at: not given
Setting: 8-mer, flanks averaged, mean of 2 arrays, mostly near background
Reference: not given
Reading: higher = stronger binding
Construct (chain): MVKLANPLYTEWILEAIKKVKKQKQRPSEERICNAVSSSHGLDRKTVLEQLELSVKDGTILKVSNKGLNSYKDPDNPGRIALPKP
| Oligonucleotide | E-score |
| --- | --- |
| AGCGGTAC | 0.341 |
| GAGCCGAA | 0.0974 |
| CTATGCGA | 0.1 |
| AATGCGAG | -0.142 |
| GCTGGTAC | 0.0441 |
| AGAGGGGC | -0.24 |
| AAGTAGAT | -0.129 |
| AACTCCGA | -0.0527 |
| ACCGTATA | 0.16 |
| TCCAGCGA | -0.135 |
| TACTATAA | -0.0651 |
| GACTCGAA | -0.0256 |
| CTTGATTC | -0.08 |
| GACGGAAC | 0.237 |
| CGTACATA | 0.0639 |
| GCGGAAAA | 0.242 |
| GTGCTACA | -0.223 |
| ATCAGTCA | -0.151 |
| AATCTATA | -0.0749 |
| ATTGAAGG | -0.123 |
| AGATTCGG | -0.11 |
| CTGTTGAC | -0.229 |
| ACGTAAAA | -0.07 |
| GTTAGCCA | -0.00835 |
| ACAGTCTC | -0.221 |

Mixed results
| Molecule | target | test | system | setting | scale | measurement | value |
| --- | --- | --- | --- | --- | --- | --- | --- |
| PhoQ, residues 284 288 289 292 302 303 GTAMQF | PhoP, residues 12 14 15 18 19 NHFIF (Escherichia coli, UniProt P23836) | Sort-seq, refers to: YFP reporter | E. coli | PhoQ-PhoP variant library, added: 10 µM Mg2+ | reference: high Mg2+ state, higher = stronger signaling | fold induction | 18.8 |
